Assay results pooled from the literature.
Each numbered part is a random draw from the data of one study; scales do not carry over between parts.

Study 1
Target: Histone acetyltransferase KAT6A, winged helix 1, GST fusion (KAT6A, Homo sapiens, UniProt Q92794, residues 1-85)
Technique: protein binding microarray
Molecule type: double-stranded DNA, one strand shown
Medium: in vitro
Concentration: not given
Setting: 8-mer, flanks averaged, mean of 2 arrays, mostly near background
Baseline: not given
Direction: higher = stronger binding
Construct (chain): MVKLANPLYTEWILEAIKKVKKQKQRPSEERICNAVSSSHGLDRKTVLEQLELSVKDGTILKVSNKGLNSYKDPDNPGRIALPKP
The E-score of `GTGGGCAA` is reported as -0.203.
`ACGTAGAT` gave an E-score of -0.042.
For `AGCTAGAT`, the E-score was -0.296.
The E-score of `CCCAATCG` is reported as -0.059.
For `CGGGAGAG`, the E-score was 0.149.
For `GACTGATC`, the E-score was -0.0769.
`ACAGTTTG` has an E-score of -0.0489.
With `ACTCTTTA` the E-score was -0.119.
`CGGTAAGA` gave an E-score of 0.1.
`CGACAGAC` has an E-score of -0.0735.
With `AAATGTAC` the E-score was -0.183.
For `AAAGAGTT`, the E-score was -0.25.
`AAGAGCTC` gave an E-score of -0.07.
The E-score of `AGAGCAAT` is reported as -0.154.
`ACGGACCT` has an E-score of 0.189.
With `ACGCTATG` the E-score was 0.181.
The E-score of `GTCCCTTA` is reported as 0.104.
The E-score of `GACAGTCA` is reported as 0.00042.
`ATATTTCA` gave an E-score of -0.227.
`ACATACCA` gave an E-score of -0.105.
`ACTAACTC` gave an E-score of -0.195.
The E-score of `ACTAATGA` is reported as -0.151.
`ATCCGACG` has an E-score of 0.337.
`CAAGCTCG` has an E-score of -0.188.
The E-score of `ATACTGAT` is reported as -0.177.

Study 2
Target: RING finger protein unkempt homolog, zinc fingers 1-6, GST-SBP tag (UNK, Homo sapiens, UniProt Q9C0B0, residues 30-357)
Sequence of UniProt Q9C0B0 (30-357, looked up): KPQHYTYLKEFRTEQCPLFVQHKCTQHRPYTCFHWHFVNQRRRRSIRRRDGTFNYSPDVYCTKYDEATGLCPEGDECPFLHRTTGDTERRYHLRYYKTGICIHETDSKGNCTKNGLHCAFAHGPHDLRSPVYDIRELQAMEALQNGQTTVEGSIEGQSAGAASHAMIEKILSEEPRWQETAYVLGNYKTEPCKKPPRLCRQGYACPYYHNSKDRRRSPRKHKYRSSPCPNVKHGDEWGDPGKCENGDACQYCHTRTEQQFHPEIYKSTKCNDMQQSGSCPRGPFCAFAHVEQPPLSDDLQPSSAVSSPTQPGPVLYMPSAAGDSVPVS
Technique: RNA Bind-n-Seq
Molecule type: RNA
Medium: in vitro
Concentration: not given
Setting: RNA with constant flanks, human-mouse chimeric sites, ends assumed
Baseline: input RNA pool
Direction: higher = stronger binding
The bound/input enrichment of `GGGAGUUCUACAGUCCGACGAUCAUGGAAAAGGAUUCUCUGCCCCGCUUUGUGCGCUCUGAAUUUUAUAAGGAGCUAAUCAAGUAGUCAUCUGGUCAGGCUAUGAAAUCAUGCCCUGUGAGUUGAGUUACAUCCUUUGUAGCACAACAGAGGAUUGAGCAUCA` is reported as 0.29 ratio.
`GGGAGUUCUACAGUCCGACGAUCUUUCUACUGCAGCAAACGAUGCUAAGAAUUAAGGAUCCUAAGAAGUCCCUGGAUUUUUAUACGAGGGUUCUUGGACUGACCCUCCUGCAAAAAUGUGACUUCCCUGCUAUGAAGUUUUCGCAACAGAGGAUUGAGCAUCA` gave a bound/input enrichment of 0.299 ratio.
For `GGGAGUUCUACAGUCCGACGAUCAUAAAAGCUAUGUUGAGUGGUCCAGGUCAGUUUGCUGAGAACGAAACCAACGAGGUCAAUUUUAGAGAGAUCCCCUCACAUGUGCUAUCAAAAGUGUGCAUGUAUUUUACCUACAAGGUCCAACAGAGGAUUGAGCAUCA`, the bound/input enrichment was 0.185 ratio.
The bound/input enrichment of `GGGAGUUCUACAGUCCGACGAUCCUUAAUGUUAAUAUUUUUGAAUAAAUGAAGCUAAAAUGUCUGCUUUUGGUACAACACGCAUUAAUAAAAGGUUAAGUUUUGUUUUCCACUGAAGUACGUAAUACUUACUCAGAAAAAAACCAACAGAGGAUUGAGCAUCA` is reported as 0.279 ratio.
`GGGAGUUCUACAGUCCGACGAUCUGUAACUCUUAUCUGUAAGGUUCCCCCCCCCUACUGUAAAAAAAUAUGCAUGUAUAGUAAUUAGGACUUCAUUCCUCCAUGUUUUCUUCCCUUAUCUUACUGUCAUUGUCCUUAAACCUUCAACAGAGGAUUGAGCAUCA` has a bound/input enrichment of 3.31 ratio.
With `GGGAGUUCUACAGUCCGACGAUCUGGGCACUCUAUCAGAUAUAUUAAUUUUUUAAUGUAGAUGUAAUUUUAAAAAUGAAUGGCUACUUUACACGUUUAACUAGGCUCUUACUAUAUAUGUGUACAUAUGUAUAUAUAUAUAUACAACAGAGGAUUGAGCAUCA` the bound/input enrichment was 8.13 ratio.
With `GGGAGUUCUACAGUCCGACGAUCAACAGAUUGUCUUUAAGCAUUCCAAGCGAGAAUGCUGAAAUAGUCAUAAUUACCCACGUGCCUUCUGACUGAGCUUUAAUGCUGUUCCAUGUUACAUCUUUCCUUCACUCCAGAAUUGUUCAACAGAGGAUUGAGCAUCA` the bound/input enrichment was 0.622 ratio.
The bound/input enrichment of `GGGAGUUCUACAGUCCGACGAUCAAAUCAUGUGUGUCCAAUAUUGAAAGUGCUUUAUCUACACUCCAGUAUGUAAGCAGUAUAGUAGUUUCUUUAGAGAAUAGGUCAGCCAUUGUAAAGUACAAUGCAAGCUCAGUCACUCCACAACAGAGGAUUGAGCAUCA` is reported as 28.9 ratio.

Study 3
Target: Interferon regulatory factor 7, full length, phosphomimetic (IRF7, Homo sapiens, UniProt Q92985, residues 1-503, S471D/S472D/S475D/S476D/S477D/S483D/S484D/S487D)
Sequence of UniProt Q92985 (whole entry, unmodified, looked up): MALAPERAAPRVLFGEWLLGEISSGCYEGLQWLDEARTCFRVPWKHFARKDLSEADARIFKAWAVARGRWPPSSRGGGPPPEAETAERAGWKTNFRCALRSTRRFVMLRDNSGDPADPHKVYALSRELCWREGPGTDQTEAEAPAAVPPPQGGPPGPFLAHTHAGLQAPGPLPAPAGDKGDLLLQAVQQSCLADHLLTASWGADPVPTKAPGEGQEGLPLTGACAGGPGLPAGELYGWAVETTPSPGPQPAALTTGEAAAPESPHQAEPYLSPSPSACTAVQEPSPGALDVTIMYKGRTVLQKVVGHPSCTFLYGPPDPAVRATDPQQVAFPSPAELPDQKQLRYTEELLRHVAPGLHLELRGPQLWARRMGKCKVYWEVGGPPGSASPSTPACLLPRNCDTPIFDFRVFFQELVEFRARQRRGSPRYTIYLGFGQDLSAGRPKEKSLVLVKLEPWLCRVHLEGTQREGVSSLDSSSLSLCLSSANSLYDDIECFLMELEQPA
Technique: protein-binding microarray
Molecule type: double-stranded DNA, one strand shown
Medium: in vitro
Concentration: 2200 nM top
Setting: 60-bp whole probe
Added: salmon DNA 0.4 mg/ml
Baseline: random background probes
Direction: higher = stronger binding
All sequences stand within: GCCTAGCAC … GTCTTGATTCGCTTGACGCTGCTG
`TTAGATTTCTGGTATCGATTAGTGCTA` — result for “fitted relative affinity”: 1.01 z-score.
For `GACGGTTCCGGTTTCGGAACGTGCTAG`, “fitted relative affinity” read 6.03 z-score.
For `GACGAACTGCGGTATCGAGACGTGCTA`, “fitted relative affinity” read -0.0598 z-score.
`CCTTATTTAAGACCTATGCACGTGCTA`: “fitted relative affinity” 0.485 z-score.
Under “fitted relative affinity”, `GACGATTTCCGACTGGAGACGTGCTAG` is recorded as 0.945 z-score.
`TTATATTTCAGTATCGATTAGTGCTAG` — result for “fitted relative affinity”: 1.28 z-score.
`GGGTTCAAGAAGTAGGAGAAGTGCTAG`: “fitted relative affinity” -0.457 z-score.
`GACGGTCTCGGTTTAGGGACGTGCTAG` — result for “fitted relative affinity”: 1.55 z-score.
`GACGATTTCTGGACTGGAGACGTGCTA`: “fitted relative affinity” 0.661 z-score.
For `TTGGGACTGCTTTTCCTTTAGTGCTAG`, “fitted relative affinity” read 1.47 z-score.
`TCCTCTTTCACTGCTCCATACGTGCTA` — result for “fitted relative affinity”: 3.28 z-score.
For `TTAGGCCTGCTTCTCCTTTAGTGCTAG`, “fitted relative affinity” read 0.709 z-score.
`TTAGGCCTCCTTATCCTTTAGTGCTAG` — result for “fitted relative affinity”: 0.858 z-score.
`TACGGTATCCTACTGCTGACGTGCTAG` — result for “fitted relative affinity”: 1.03 z-score.
`GACGATTTCAATTTCGAGACGTGCTAG` — result for “fitted relative affinity”: 2.4 z-score.
`TCACTTTACTCACTCGGACTGTGCTAG` — result for “fitted relative affinity”: 2.65 z-score.
`TAAGGTCTCCTTATCCTTTAGTGCTAG`: “fitted relative affinity” 0.798 z-score.
Under “fitted relative affinity”, `TTAGGTCTCCTATTGCTTTAGTGCTAG` is recorded as 0.534 z-score.
Under “fitted relative affinity”, `TCATTGTTGTTTTTTGGACTGTGCTAG` is recorded as 1.29 z-score.

Study 4
Target: Sal-like protein 4, full length isoform A (SALL4, Homo sapiens, UniProt Q9UJQ4, residues 1-1053)
Sequence of UniProt Q9UJQ4 (whole entry, looked up): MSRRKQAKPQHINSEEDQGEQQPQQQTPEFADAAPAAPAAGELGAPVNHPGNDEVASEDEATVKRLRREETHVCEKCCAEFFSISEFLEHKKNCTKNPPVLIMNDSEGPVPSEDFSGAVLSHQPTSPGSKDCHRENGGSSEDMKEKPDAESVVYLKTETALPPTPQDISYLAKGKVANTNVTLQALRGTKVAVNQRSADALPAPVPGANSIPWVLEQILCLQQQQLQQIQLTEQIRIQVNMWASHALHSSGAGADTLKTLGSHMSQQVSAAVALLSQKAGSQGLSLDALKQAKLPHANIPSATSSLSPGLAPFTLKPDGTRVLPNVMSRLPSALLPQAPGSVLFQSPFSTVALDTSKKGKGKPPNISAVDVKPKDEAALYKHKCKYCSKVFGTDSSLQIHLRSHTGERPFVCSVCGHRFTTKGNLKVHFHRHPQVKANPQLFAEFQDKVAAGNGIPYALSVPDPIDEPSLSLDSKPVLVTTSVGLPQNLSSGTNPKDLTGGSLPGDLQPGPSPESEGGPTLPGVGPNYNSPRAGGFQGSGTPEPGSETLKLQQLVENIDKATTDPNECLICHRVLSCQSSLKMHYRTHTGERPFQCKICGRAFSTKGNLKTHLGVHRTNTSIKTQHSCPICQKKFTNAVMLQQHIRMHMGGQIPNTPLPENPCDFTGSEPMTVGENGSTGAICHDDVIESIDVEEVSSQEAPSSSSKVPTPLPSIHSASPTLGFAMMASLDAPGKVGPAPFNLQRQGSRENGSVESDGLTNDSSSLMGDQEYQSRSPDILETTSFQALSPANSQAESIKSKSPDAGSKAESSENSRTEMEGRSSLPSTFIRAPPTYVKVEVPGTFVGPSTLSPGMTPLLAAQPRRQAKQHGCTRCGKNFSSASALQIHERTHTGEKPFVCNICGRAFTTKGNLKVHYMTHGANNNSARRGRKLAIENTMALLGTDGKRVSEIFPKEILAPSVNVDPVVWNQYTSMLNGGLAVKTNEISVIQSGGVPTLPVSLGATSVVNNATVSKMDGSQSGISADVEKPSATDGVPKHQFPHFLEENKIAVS
Technique: universal PBM
Molecule type: double-stranded DNA, one strand shown
Medium: in vitro
Concentration: 600 nM
Setting: 8-mer, flanks averaged, mean of replicates
Direction: higher = stronger binding
`CGCGAAGC` has an E-score of -0.102.
With `AGTTGCTA` the E-score was 0.151.
With `AACGCCGC` the E-score was -0.327.
The E-score of `ATGCACAC` is reported as 0.0155.
`GCTTTACC` gave an E-score of 0.0375.
The E-score of `GATTGGTA` is reported as 0.106.
With `CATGCTAC` the E-score was -0.209.
`GGGATGGA` has an E-score of -0.22.
`CGATCCCG` gave an E-score of -0.301.
The E-score of `ATAAAAGC` is reported as 0.226.
With `CTAGTGTC` the E-score was -0.0318.
The E-score of `ATCAACCG` is reported as -0.0713.
`TACCTTCA` has an E-score of 0.122.
With `GGTTAGTA` the E-score was 0.058.
`CCTAAGAG` has an E-score of -0.186.
`AGGATGGC` has an E-score of -0.163.
`CAGCCTCC` has an E-score of -0.338.
With `GGCCTAGA` the E-score was -0.0912.
For `AATGATGC`, the E-score was 0.105.
For `ATTCGGAC`, the E-score was 0.115.
With `ACAGGAGT` the E-score was 0.00958.
The E-score of `ACACCCCT` is reported as -0.059.

Excerpt of the above (study 1):
`ACGTAGAT` gave an E-score of -0.042.
The E-score of `AGAGCAAT` is reported as -0.154.
The E-score of `ATACTGAT` is reported as -0.177.
`AAGAGCTC` gave an E-score of -0.07.
The E-score of `GTGGGCAA` is reported as -0.203.
With `AAATGTAC` the E-score was -0.183.
`ACAGTTTG` has an E-score of -0.0489.
`ATATTTCA` gave an E-score of -0.227.
With `ACTCTTTA` the E-score was -0.119.
